Assay results gathered from unrelated publications.
Numbered parts are unrelated; each lists some results of a single study. Values joined by “and” are separate records of one study, mostly repeats; a detail may differ.
Sequence of UniProt P35590 (whole entry, looked up): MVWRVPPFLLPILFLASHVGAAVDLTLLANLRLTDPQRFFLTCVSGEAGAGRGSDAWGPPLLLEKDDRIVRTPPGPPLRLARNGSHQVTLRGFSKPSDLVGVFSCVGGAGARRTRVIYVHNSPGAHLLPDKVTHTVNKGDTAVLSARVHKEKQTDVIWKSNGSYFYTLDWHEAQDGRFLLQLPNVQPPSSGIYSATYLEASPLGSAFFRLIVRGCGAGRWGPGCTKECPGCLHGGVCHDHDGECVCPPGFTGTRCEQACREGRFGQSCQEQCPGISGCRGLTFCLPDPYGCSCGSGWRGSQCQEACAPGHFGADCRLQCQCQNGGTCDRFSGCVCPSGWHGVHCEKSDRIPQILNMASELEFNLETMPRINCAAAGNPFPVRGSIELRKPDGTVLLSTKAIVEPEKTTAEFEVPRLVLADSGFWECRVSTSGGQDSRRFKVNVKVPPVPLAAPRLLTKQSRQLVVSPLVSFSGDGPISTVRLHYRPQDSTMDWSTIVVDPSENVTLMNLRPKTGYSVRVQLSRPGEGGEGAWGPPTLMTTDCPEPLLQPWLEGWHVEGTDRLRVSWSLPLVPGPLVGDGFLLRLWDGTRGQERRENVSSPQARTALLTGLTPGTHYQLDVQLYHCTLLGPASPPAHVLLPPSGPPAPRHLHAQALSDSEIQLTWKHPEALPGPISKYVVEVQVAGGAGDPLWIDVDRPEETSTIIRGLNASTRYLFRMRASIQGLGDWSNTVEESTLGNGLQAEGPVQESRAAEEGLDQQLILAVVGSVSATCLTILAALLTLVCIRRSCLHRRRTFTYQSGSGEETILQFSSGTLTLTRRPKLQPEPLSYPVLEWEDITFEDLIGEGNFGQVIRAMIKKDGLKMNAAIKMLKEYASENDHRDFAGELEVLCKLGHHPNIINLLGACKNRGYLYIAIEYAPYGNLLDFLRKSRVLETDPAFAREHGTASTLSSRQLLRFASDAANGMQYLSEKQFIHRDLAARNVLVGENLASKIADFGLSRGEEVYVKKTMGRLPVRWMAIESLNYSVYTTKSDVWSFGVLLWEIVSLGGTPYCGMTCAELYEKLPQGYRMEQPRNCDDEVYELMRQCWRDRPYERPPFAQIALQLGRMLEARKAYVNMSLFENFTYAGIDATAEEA
Sequence of UniProt Q7KZI7 (whole entry, looked up): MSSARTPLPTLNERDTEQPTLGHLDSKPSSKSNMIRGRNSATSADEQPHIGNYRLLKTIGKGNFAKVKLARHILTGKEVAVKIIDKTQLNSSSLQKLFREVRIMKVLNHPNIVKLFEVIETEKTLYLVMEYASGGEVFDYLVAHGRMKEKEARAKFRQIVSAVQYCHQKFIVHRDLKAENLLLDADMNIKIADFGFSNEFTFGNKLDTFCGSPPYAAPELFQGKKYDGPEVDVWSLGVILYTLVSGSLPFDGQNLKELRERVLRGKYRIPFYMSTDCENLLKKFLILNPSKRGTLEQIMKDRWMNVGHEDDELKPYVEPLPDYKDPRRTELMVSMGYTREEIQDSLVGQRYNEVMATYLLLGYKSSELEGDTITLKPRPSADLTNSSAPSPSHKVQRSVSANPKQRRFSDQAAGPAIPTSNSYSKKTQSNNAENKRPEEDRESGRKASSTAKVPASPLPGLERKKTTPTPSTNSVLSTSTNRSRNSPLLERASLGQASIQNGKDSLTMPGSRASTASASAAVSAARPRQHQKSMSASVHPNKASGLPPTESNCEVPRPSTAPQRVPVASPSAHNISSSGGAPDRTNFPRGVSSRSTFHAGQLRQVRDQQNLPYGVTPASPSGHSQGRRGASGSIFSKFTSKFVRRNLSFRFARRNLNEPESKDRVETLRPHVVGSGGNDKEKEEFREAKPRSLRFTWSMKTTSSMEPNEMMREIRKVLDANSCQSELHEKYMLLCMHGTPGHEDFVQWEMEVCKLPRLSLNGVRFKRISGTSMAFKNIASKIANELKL
Sequence of UniProt Q15418 (whole entry, looked up): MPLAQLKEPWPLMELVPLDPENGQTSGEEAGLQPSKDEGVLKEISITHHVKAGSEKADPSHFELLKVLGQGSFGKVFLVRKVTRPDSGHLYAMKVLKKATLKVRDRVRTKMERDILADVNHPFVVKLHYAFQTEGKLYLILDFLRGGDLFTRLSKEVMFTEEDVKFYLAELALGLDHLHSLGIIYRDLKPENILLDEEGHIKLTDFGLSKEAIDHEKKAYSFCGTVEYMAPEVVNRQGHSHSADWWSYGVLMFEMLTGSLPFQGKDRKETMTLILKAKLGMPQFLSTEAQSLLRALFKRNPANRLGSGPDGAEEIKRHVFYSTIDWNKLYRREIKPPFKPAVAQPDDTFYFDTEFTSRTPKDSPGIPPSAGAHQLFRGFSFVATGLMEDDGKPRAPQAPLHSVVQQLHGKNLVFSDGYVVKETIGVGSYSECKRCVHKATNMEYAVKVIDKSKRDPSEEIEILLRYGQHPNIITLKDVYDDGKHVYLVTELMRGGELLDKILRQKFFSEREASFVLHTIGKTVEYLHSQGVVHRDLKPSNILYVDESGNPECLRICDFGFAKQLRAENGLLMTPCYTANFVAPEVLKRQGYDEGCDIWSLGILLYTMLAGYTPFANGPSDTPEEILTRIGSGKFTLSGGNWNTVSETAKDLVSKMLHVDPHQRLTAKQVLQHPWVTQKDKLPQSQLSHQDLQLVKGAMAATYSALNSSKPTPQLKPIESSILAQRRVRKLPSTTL
Sequence of UniProt P68400 (whole entry, looked up): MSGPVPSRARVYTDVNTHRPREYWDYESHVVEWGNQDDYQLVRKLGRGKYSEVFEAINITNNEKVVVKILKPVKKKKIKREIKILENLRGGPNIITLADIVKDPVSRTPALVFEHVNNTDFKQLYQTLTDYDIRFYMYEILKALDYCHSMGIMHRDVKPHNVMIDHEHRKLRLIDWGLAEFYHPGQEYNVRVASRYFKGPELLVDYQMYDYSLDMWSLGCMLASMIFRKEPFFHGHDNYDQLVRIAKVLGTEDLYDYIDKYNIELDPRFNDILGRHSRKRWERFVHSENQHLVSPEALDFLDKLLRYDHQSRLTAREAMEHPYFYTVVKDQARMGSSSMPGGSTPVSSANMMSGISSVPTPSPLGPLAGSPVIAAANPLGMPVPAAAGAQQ

Study 1 — technique: NanoBRET; concentration: 1 µM
Compound: COc1cc(-c2nc3ccc(C(=O)NCCCN(C)C)cc3n2C2CCC2)cc(OC)c1OC
target	target occupancy [%]
BRSK2 (Homo sapiens, UniProt Q8IWQ3)	-0.23
STK10 (Homo sapiens, UniProt O94804)	1.89
CILK1 (Homo sapiens, UniProt Q9UPZ9)	-6.15
ERN2 (Homo sapiens, UniProt Q76MJ5)	0.62
CSNK1D (Homo sapiens, UniProt P48730)	-0.75
MST1R (Homo sapiens, UniProt Q04912)	1.69
CDKL3 (Homo sapiens, UniProt Q8IVW4)	-11.1
STK11 (Homo sapiens, UniProt Q15831)	-1.56
SIK2 (Homo sapiens, UniProt Q9H0K1)	-0.65
NEK5 (Homo sapiens, UniProt Q6P3R8)	3.11
CSNK2A1 (Homo sapiens, UniProt P68400)	0.01
TIE1 (Homo sapiens, UniProt P35590)	10.1
MARK2 (Homo sapiens, UniProt Q7KZI7)	0.52
Cyclin-dependent kinase 18, with cyclin Y (CDK18, Homo sapiens, UniProt Q07002)	6.89
PRKACA (Homo sapiens, UniProt P17612)	-0.64
EPHA6 (Homo sapiens, UniProt Q9UF33)	-11.9
RPS6KA1 (Homo sapiens, UniProt Q15418)	1.41

Study 2 — read-out: thermal unfolding; technique: differential scanning fluorimetry; concentration: 5.5 µM; reading: higher = more unfolded
SMILES: C[C@@H]1CN(c2ccc(-c3cc(C(=O)NCCOCCOCCOCCOCCNC(=O)/C=C/c4[nH]cc(C(=O)N[C@@H](CC(N)=O)c5ccc(F)c(Cl)c5)c4-c4ccc(Cl)cc4F)ccc3F)cc2NC(=O)c2c[nH]c(=O)cc2C(F)(F)F)C[C@H](C)N1C
WDR5: WD repeat-containing protein 5 (WDR5, Homo sapiens, UniProt P61964)
DCAF1: DDB1- and CUL4-associated factor 1 (DCAF1, Homo sapiens, UniProt Q9Y4B6)
Sequence of UniProt Q9Y4B6 (whole entry, looked up): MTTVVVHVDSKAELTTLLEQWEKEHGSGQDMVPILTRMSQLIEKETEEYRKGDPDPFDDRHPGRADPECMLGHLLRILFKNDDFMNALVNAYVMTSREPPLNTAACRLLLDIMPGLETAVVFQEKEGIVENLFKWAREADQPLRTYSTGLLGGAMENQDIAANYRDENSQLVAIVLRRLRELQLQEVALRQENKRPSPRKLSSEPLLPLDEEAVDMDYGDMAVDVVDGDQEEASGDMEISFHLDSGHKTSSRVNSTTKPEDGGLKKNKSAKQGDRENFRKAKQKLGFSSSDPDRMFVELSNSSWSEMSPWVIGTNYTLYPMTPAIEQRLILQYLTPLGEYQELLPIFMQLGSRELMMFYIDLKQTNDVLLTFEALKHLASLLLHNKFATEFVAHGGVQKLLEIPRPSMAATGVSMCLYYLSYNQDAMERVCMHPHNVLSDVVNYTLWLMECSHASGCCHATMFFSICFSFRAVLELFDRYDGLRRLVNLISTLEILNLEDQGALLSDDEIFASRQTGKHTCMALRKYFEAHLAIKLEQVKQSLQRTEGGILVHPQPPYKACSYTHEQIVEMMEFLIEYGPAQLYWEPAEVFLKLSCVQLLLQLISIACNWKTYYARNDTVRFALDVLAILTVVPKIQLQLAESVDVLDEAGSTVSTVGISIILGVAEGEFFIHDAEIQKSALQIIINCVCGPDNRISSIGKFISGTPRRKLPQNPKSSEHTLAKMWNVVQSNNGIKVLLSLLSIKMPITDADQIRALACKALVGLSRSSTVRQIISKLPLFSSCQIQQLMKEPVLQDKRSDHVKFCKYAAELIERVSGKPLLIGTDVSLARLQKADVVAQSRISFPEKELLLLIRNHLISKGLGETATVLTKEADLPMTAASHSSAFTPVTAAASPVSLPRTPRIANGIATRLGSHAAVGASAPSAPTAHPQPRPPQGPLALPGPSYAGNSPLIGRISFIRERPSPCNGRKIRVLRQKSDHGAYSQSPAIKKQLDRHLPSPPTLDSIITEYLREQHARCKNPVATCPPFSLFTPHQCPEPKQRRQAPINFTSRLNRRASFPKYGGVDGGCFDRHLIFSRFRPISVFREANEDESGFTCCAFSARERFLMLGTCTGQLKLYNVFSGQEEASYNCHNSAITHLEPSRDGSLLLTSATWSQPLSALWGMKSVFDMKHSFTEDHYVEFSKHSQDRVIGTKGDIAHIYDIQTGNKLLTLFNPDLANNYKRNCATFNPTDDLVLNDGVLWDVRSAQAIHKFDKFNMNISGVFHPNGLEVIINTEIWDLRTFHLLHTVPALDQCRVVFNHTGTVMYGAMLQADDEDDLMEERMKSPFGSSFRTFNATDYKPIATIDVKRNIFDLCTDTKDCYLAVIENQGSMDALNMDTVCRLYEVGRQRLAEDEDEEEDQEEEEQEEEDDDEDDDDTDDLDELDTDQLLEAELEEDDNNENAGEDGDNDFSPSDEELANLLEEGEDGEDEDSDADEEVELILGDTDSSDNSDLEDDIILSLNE
target	setting	SYPRO Orange fluorescence [a.u.]
WDR5	81.81 °C	45500
DCAF1	25 °C	9030
WDR5	88.21 °C	53000
WDR5	72.01 °C	19500
DCAF1	28.6 °C	9160
WDR5	32.6 °C	12700
DCAF1	40.6 °C	11800
DCAF1	68.61 °C	57400

Study 3 — action: degrader; technique: automated immunoblot; cells: HCC1569; time: 24 h
Target: Membrane-associated tyrosine- and threonine-specific cdc2-inhibitory kinase (PKMYT1, Homo sapiens, UniProt Q99640)
Sequence of UniProt Q99640 (whole entry, looked up): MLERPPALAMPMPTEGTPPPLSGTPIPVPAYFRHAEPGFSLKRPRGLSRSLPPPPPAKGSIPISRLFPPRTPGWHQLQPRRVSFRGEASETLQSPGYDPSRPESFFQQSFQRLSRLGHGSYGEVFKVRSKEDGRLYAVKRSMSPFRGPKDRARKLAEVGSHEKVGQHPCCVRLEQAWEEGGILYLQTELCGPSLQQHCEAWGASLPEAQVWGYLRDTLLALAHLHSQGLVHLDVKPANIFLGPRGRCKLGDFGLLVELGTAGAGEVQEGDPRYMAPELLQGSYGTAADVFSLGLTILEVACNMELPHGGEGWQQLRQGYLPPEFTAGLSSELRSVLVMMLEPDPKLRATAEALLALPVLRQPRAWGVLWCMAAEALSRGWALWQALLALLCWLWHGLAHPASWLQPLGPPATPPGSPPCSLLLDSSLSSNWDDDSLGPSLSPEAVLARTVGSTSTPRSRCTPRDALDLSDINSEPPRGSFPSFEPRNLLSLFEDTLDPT
SMILES	Dmax [%]
Cc1ccc(O)c(C)c1-c1cnc2[nH]c(-c3cnc(N4CCC(CN5CCN(c6ccc7c(c6)C(=O)N(C6CCC(=O)NC6=O)C7=O)CC5)CC4)nc3)cc2c1C#N (centres unmarked)	93
Cc1ccc(O)c(C)c1-c1cnc2[nH]c(-c3cnc(N4CCC5(CC4)CC(CN4CCN(c6ccc(NC7CCC(=O)NC7=O)cc6F)CC4)C5)nc3)cc2c1C#N (centres unmarked)	91
Cc1ccc(O)c(C)c1-c1cnc2[nH]c(-c3cnc(N4CCC(CN5CCN(c6cc7c(cc6F)n(C6CCC(=O)NC6=O)c(=O)n7C)CC5)CC4)nc3)cc2c1C#N (centres unmarked)	91
Cc1ccc(O)c(C)c1-c1cnc2[nH]c(-c3cnc(N4CC5(CC(CN6CCN(c7ccc(NC8CCC(=O)NC8=O)cc7F)CC6)C5)C4)nc3)cc2c1C#N (centres unmarked)	66
Cc1ccc(O)c(C)c1-c1cnc2[nH]c(-c3cnc(N4CCC5(CC4)CC(N4CCN(c6ccc(NC7CCC(=O)NC7=O)cc6F)CC4)CO5)nc3)cc2c1C#N (centres unmarked)	75
Cc1ccc(O)c(C)c1-c1cnc2[nH]c(-c3cnc(N4CCC(CN5CCN(c6ccc7c(c6)CN(C6CCC(=O)NC6=O)C7=O)CC5)CC4)nc3)cc2c1C#N (centres unmarked)	87

Study 4 — read-out: binding; technique: NanoBRET; cells: HEK293 (live); reading: lower = stronger binding
Structure (SMILES): CN1CCC[C@H]1COc1nc2c(c(N3CCN(C(=O)C4CC4)[C@@H](CC#N)C3)n1)CCN(c1cccc3cccc(Cl)c13)C2
Target: GTPase HRas (HRAS, Homo sapiens, UniProt P01112)
setting	target engagement
1.046 µM	112% and 92.3% and 101%
0.09151 µM	102% and 107% and 94.3%
0.5686 µM	94.2% and 115% and 97.4%
1.523 µM	114% and 92.7% and 94.9%

Repeated from above (study 4):
setting	target engagement
1.046 µM	112% and 92.3% and 101%
0.09151 µM	102% and 107% and 94.3%
